Assay results of several laboratories.
± gives the spread as reported.

Molecule | test | system | setting | how to read | endpoint | result
CCCCCOc1ccc(-c2cc(-c3ccc(C(=O)N[C@H]4C[C@@H](O)[C@@H](O)NC(=O)[C@@H]5[C@@H](O)[C@@H](C)CN5C(=O)[C@H]([C@H](O)CC(N)=O)NC(=O)[C@H]([C@H](O)[C@@H](O)c5ccc(O)c(OS(=O)(=O)O)c5)NC(=O)[C@@H]5C[C@@H](O)CN5C(=O)[C@H]([C@@H](C)O)NC4=O)cc3)no2)cc1 | – | human paediatric patients 2 to 5 years, plasma | intravenous, 4.5 mg/kg once daily, day 7, median | – | AUC(0-tau) | 248000 ng·h/mL
O[C@H]1CCCN[C@@H]1CCCn1cnc2c(Cl)c(Cl)ccc21 | – | healthy human volunteers, plasma | oral, 100 mg, day 1, multiple ascending dose | – | AUC(0-tau) | 329 ng·h/mL
O=C(NCCc1ccc(F)cc1F)c1cn(Cc2ccc(F)cc2)cc(O)c1=O | – | PBS | 72 h, pH 7.2 | – | solubility | 2.2 µM
CCCCCCCCCC[N+](C)(C)C | substrate depletion | human liver microsomes | 0.5 µM, 0 to 3 h, 37 °C, with: NADPH | – | intrinsic clearance | 0.165 mL/h/mg protein
CC(C)C[C@@H]1NC(=O)[C@@H](NC(=O)CN)CSSC[C@@H]2NC(=O)[C@@H]3CSSC[C@@H](C(=O)N[C@@H](CC(N)=O)C(=O)N[C@@H](Cc4ccccc4)C(=O)N[C@@H](CO)C(=O)N[C@@H](Cc4ccccc4)C(N)=O)NC(=O)[C@H](CC(C)C)NC(=O)[C@H](CCCCN)NC(=O)[C@H](Cc4ccccc4)NC(=O)[C@H](CC(C)C)NC(=O)[C@H](CCCCN)NC(=O)[C@H](CO)NC(=O)[C@H](CSSC[C@H](NC(=O)[C@H](CCCCN)NC(=O)[C@H](Cc4c[nH]c5ccccc45)NC(=O)[C@H](Cc4c[nH]c5ccccc45)NC(=O)[C@H](Cc4ccccc4)NC(=O)[C@H](CCC(=O)O)NC1=O)C(=O)N[C@@H](CC(N)=O)C(=O)N1CCC[C@H]1C(=O)N[C@@H](CC(N)=O)C(=O)N[C@@H](CC(=O)O)C(=O)N[C@@H](CC(=O)O)C(=O)N[C@@H](CCCCN)C(=O)N3)NC(=O)[C@H](CCCCN)NC(=O)[C@H](CC(C)C)NC(=O)[C@H](CCCCN)NC(=O)[C@@H]1CCCN1C(=O)[C@H](CCCNC(=N)N)NC2=O | ultrafiltration, HPLC | medium with 10% serum | 50 µM, 10 min | relative to: serum-free medium | reduction of free concentration | ~20 fold
CSCC[C@H](N)C(=O)N[C@@H](CC(N)=O)C(=O)N[C@@H](Cc1ccccc1)C(=O)N[C@@H](CCCNC(=N)N)C(=O)N1CCC[C@H]1C(=O)NCC(=O)N[C@H](C(=O)N[C@@H](CC(C)C)C(=O)N[C@@H](CO)C(=O)N[C@@H](CO)C(=O)N[C@@H](CCCNC(=N)N)C(=O)N[C@@H](CCC(N)=O)C(=O)N[C@@H](CC(C)C)C(=O)NCC(=O)N[C@@H](CC(C)C)C(=O)N1CCC[C@H]1C(=O)NCC(=O)N1CCC[C@H]1C(=O)N1CCC[C@H]1C(=O)N[C@@H](CC(=O)O)C(=O)N[C@H](C(=O)N1CCC[C@H]1C(=O)N[C@@H](CC(=O)O)C(=O)N[C@@H](Cc1c[nH]cn1)C(=O)N[C@@H](C)C(=O)N[C@@H](C)C(=O)N[C@@H](Cc1ccc(O)cc1)C(=O)N[C@@H](Cc1c[nH]cn1)C(=O)N1CCC[C@H]1C(=O)N[C@@H](Cc1ccccc1)C(=O)O)C(C)C)C(C)C | LC-MS/MS | human serum | concentration not given, 4 h, room temperature, tube with gel separator | relative to: initial concentration | change in serum concentration | -10.9 ± 12%
NC(=O)c1nc(F)c[nH]c1=O | UV-Vis spectrophotometry | supercritical CO2 | 120 min, 328 K, 18 MPa, 724.13 kg/m^3 | – | solubility | 360 µg/mL
COc1cc(-c2nc(-c3ccccc3)c(-c3cccs3)[nH]2)cc(OC)c1OP(=O)(O)O | – | C57BL/6 mouse, CES1 knockout, liver homogenate | 10 µM, 1 h, 37 °C | – | remaining compound | > 50%
CCCCCOc1ccc(-c2ccc(-c3ccc(C(=O)N[C@H]4C[C@@H](O)[C@@H](O)NC(=O)[C@@H]5[C@@H](O)[C@@H](C)CN5C(=O)[C@H]([C@@H](C)O)NC(=O)[C@H]([C@H](O)[C@@H](O)c5ccc(O)cc5)NC(=O)[C@@H]5C[C@@H](O)CN5C(=O)[C@H]([C@@H](C)O)NC4=O)cc3)cc2)cc1 | – | human neonates, plasma | intravenous, 1.5 mg/kg/day after 3 mg/kg loading | – | steady-state volume of distribution | 1.7 L/kg
CSCC[C@@H]1NC(=O)[C@H](CC(=O)O)NC(=O)CNC(=O)[C@H](CCCNC(=N)N)NC(=O)[C@H](C)NC(=O)[C@H](CCC(=O)O)NC(=O)[C@H](CCCNC(=N)N)NC(=O)[C@@H]2CSSC[C@@H]3NC(=O)[C@H](CO)NC(=O)[C@H]([C@@H](C)O)NC(=O)[C@@H]4CCCN4C(=O)[C@H](C)NC(=O)[C@H](Cc4c[nH]c5ccccc45)NC(=O)[C@H](CC(=O)O)NC(=O)CNC(=O)[C@H](CCCNC(=N)N)NC(=O)CNC(=O)[C@H](CCC(N)=O)NC(=O)[C@@H]4CCCN4C(=O)[C@@H](NC(=O)CNC(=O)C(C)F)CSSC[C@H](NC(=O)CNC(=O)[C@H](C)NC(=O)[C@H](CC(C)C)NC(=O)[C@H](CSSC[C@@H](C(=O)NCC(N)=O)NC(=O)[C@H]([C@@H](C)O)NC(=O)[C@H](CCCNC(=N)N)NC(=O)[C@@H]4CCCN4C1=O)NC(=O)[C@H](CC(=O)O)NC(=O)[C@H](CO)NC(=O)[C@H](CC(=O)O)NC(=O)[C@H](CCC(N)=O)NC(=O)[C@H](CO)NC3=O)C(=O)N[C@@H](C(C)C)C(=O)N2 (stereo partly shown) [fluorine-18 labelled] | – | nude mouse, U-87 MG xenograft, brain | intravenous, 2.5 h, with: cyclo(RGDyK) co-injected | – | tissue uptake | 0.09 ± 0.01 %ID/g
teicoplanin | two-compartment population PK | ICU patients | intravenous infusion, dose not given, 1 h infusion | – | clearance | 0.838 L/h
CCCCCCCCCCCC(=O)NCCCC[C@H](NC(=O)[C@@H](NC(=O)[C@@H](NC(=O)[C@H](C)NC(=O)[C@H](C)NC(=O)[C@H](CCCCN)NC(=O)[C@H](CCCCN)NC(=O)[C@H](CS)NC(=O)[C@H](CCCCN)NC(=O)[C@@H]1CCCN1C(=O)[C@H](CC(C)C)NC(=O)[C@@H](NC(=O)[C@H](Cc1c[nH]c2ccccc12)NC(=O)[C@H](CC(C)C)NC(=O)[C@@H](N)CCCCN)C(C)C)C(C)C)C(C)C)C(N)=O | three-compartment model | Sprague Dawley rat, plasma | intravenous, 2.5 mg | – | slow intercompartmental clearance | 5 mL/h
CC1(C)S[C@@H]2[C@H](NC(=O)[C@H](C(=O)O)c3ccsc3)C(=O)N2[C@H]1C(=O)O | – | rat plasma | 8000 ng/mL, -20 °C to room temperature, three freeze-thaw cycles | – | measured concentration | 8080 ± 97 ng/mL
CC(=O)NCCCC[C@H](NC(=O)OC12CC3CC(CC(C3)C1)C2)C(=O)N[C@@H](CCC(=O)C=[N+]=[N-])C(=O)OC(C)C | metabolic stability | pig, liver | 20 µM, 1 h | – | compound remaining | 28%
C[C@H]1NC(C)(C)CO[C@]1(O)c1cccc(Cl)c1 | – | dually perfused human placental lobule | maternal-to-fetal transfer, with: maternal concentration 470 ng/mL | – | time to appearance in fetal circuit | ≤ 5 min
CC[C@@]1(O)C(=O)OCc2c1cc1n(c2=O)Cc2cc3c(CN(C)C)c(O)ccc3nc2-1 | – | human patients, plasma | oral, 2.5 mg daily for 5 days, geometric mean, with: pazopanib 800 mg daily | – | AUC(0-inf) | 66.6 ng·h/mL
CC(=O)N[C@H](C(=O)N[C@@H](CO)C(=O)N[C@@H](CCCNC(=N)N)C(=O)N[C@@H](CCCNC(=N)N)C(=O)N[C@@H](CCCNC(=N)N)C(N)=O)C(C)C | – | healthy adults | intravenous infusion, 1 mg/kg every 6 h, over 30 min, maximum among subjects | relative to: dose 2 over dose 1 | AUC(tau) accumulation ratio | 1.4
CCCCCOc1ccc(-c2ccc(-c3ccc(C(=O)N[C@H]4C[C@@H](O)[C@@H](O)NC(=O)[C@@H]5[C@@H](O)[C@@H](C)CN5C(=O)[C@H]([C@@H](C)O)NC(=O)[C@H]([C@H](O)[C@@H](O)c5ccc(O)cc5)NC(=O)[C@@H]5C[C@@H](O)CN5C(=O)[C@H]([C@@H](C)O)NC4=O)cc3)cc2)cc1 | – | patients aged 5 to <sample A years, plasma | intravenous, loading 3.0 then 1.5 mg/kg daily | – | AUC(0-24) steady state mean | 86800 ng·h/mL
CC[C@H](C)[C@H](NC(=O)[C@@H](NC(=O)[C@H](CC(N)=O)NC(=O)[C@H](CCC(N)=O)NC(=O)[C@@H]1CCCN1C(=O)[C@@H](NC(=O)[C@H](Cc1ccc(O)cc1)NC(=O)CNC(=O)[C@H](Cc1ccc(O)cc1)NC(=O)[C@H](Cc1c[nH]c2ccccc12)NC(=O)[C@H](Cc1c[nH]cn1)NC(=O)[C@H](Cc1ccc(O)cc1)NC(=O)CCOCCOCCOCCOCCC(=O)NCCCN(CCCNC(=O)CCOCCOCCOCCOCCC(=O)NCCCC[C@@H]1NC(=O)[C@@H](Cc2ccc(O)cc2)NC(=O)[C@H](CC(=O)O)NC(=O)CNC(=O)[C@H](CCCNC(=N)N)NC1=O)CC(=O)NCCOCCOCCOCCOCCC(=O)N[C@@H](CCCCNC(=O)CC[C@H](C(=O)O)N1CCN(CC(=O)O)CCN(CC(=O)O)CC1)C(N)=O)[C@@H](C)O)C(C)C)C(=O)O [gallium-68 labelled] | PET/CT | BALB/c nude mice, female, A-431 xenograft, tumour | intravenous, dose not given, without blocking | – | SUV | 0.43 ± 0.21 SUV
[123I]c1cncc(OC[C@@H]2CCN2)c1 | SPECT | human, frontal lobe | intravenous bolus, 9.1 mCi | relative to: tissue over plasma | tissue/plasma ratio | 10.6
O=S(=O)(O)Oc1ccc(-c2cccc(Cl)c2)cc1Cl | – | Sprague-Dawley rat (male) | iv, 575 µg/kg, 24 h | – | dose fraction not recovered | 96%
CC[C@H](C)[C@H](NC(=O)[C@H](CCC(=O)O)NC(=O)[C@H](CCC(=O)O)NC(=O)[C@H](Cc1ccccc1)NC(=O)[C@H](CC(=O)O)NC(=O)CNC(=O)[C@H](CC(N)=O)NC(=O)CNC(=O)CNC(=O)CNC(=O)CNC(=O)[C@@H]1CCCN1C(=O)[C@H](CCCNC(=N)N)NC(=O)[C@@H]1CCCN1C(=O)[C@H](N)Cc1ccccc1)C(=O)N1CCC[C@H]1C(=O)N[C@@H](CCC(=O)O)C(=O)N[C@@H](CCC(=O)O)C(=O)N[C@@H](Cc1ccc(O)cc1)C(=O)N[C@@H](CC(C)C)C(=O)O | – | PCI patients, plasma | intravenous, 0.75 mg/kg bolus then 1.75 mg/kg/h, 30 min | – | steady-state plasma concentration | 2700 ± 500 nM
CC[C@H]1CN2CCc3cc(OC)c(OC)cc3[C@@H]2C[C@@H]1C[C@H]1NCCc2cc(OC)c(OC)cc21 | – | mouse, male | intravenous, 16 mg/kg, single toxic dose | – | time to convulsions and death | ≤ 1 min
C=CCc1cccc(/C=N/NC(=O)CN2CCN(Cc3ccccc3)CC2)c1O | – | healthy dog, plasma | IV constant rate infusion, dose not given, 48 h, time with plasma level ≥ 6-h concentration | – | duration above reference concentration | ~36 h
CC(C)C[C@H](NC(=O)[C@H](CCC(=O)O)NC(=O)[C@H](CCC(=O)O)NC(=O)[C@H](CC(=O)O)NC(=O)[C@H](CCC(=O)O)NC(=O)[C@H](CCC(=O)O)NC(=O)[C@H](CCC(=O)O)NC(=O)[C@@H](N)CC(=O)O)C(=O)O | – | rat, CSF | intranasal, 5.5 mg/kg, 180 min | – | concentration | 0.264 ng/mL
CN1C(=CC=C2CCCC(=CC=C3N(CCCCCC(=O)O)c4ccccc4C3(C)C)C2=O)C(C)(C)c2ccccc21 | – | phosphate buffer-acetonitrile | pH 7.5, 25 °C | – | emission maximum | 643 nm
CN[C@@](C)(C[18F])C(=O)O | – | SCID mouse MDA-MB-468 xenograft, lung | 60 min, post injection | – | tissue uptake | 2 ± 0.3 %ID/g
CC(=O)N[C@H](CCCCNC(=O)C(C)F)C(=O)N[C@@H](CS)C(=O)N[C@@H](CS)C(=O)N[C@@H](CCC(=O)O)C(=O)N[C@@H](Cc1c[nH]cn1)C(=O)N[C@H](Cc1ccccc1)C(=O)N[C@@H](CCCNC(=N)N)C(=O)N[C@@H](Cc1c[nH]c2ccccc12)C(=O)N[C@@H](CS)C(=O)N[C@@H](CCCNC(=N)N)C(=O)N1CCC[C@H]1C(=O)N[C@H](C(N)=O)C(C)C (stereo partly shown) [fluorine-18 labelled] | – | male C57BL/6 mice, B16-F10 tumour | intravenous, 2 h | relative to: tumour over blood | tumour to tissue uptake ratio | 3.8 ± 0.89

For quick reference, copied from above:
Molecule | test | system | setting | how to read | endpoint | result
CC[C@H](C)[C@H](NC(=O)[C@H](CCC(=O)O)NC(=O)[C@H](CCC(=O)O)NC(=O)[C@H](Cc1ccccc1)NC(=O)[C@H](CC(=O)O)NC(=O)CNC(=O)[C@H](CC(N)=O)NC(=O)CNC(=O)CNC(=O)CNC(=O)CNC(=O)[C@@H]1CCCN1C(=O)[C@H](CCCNC(=N)N)NC(=O)[C@@H]1CCCN1C(=O)[C@H](N)Cc1ccccc1)C(=O)N1CCC[C@H]1C(=O)N[C@@H](CCC(=O)O)C(=O)N[C@@H](CCC(=O)O)C(=O)N[C@@H](Cc1ccc(O)cc1)C(=O)N[C@@H](CC(C)C)C(=O)O | – | PCI patients, plasma | intravenous, 0.75 mg/kg bolus then 1.75 mg/kg/h, 30 min | – | steady-state plasma concentration | 2700 ± 500 nM
CCCCCCCCCC[N+](C)(C)C | substrate depletion | human liver microsomes | 0.5 µM, 0 to 3 h, 37 °C, with: NADPH | – | intrinsic clearance | 0.165 mL/h/mg protein
